Results collected from several papers.
Lines come from different studies, so protocols differ.

| Compound | assay | system | conditions | measurement | result |
| --- | --- | --- | --- | --- | --- |
| CC#CC(=O)N[C@H]1CCCN(c2c(F)cc(C(N)=O)c3[nH]c(C)c(C)c23)C1 | – | healthy volunteers | oral, 10 mg once daily, 14 days, MAD phase I | adverse events | 83.3% |
| CCO[C@H]1CCN(Cc2c(OC)cc(C)c3[nH]ccc23)[C@H](c2ccc(C(=O)O)cc2)C1 | item: abdominal pain | PNH patients with active haemolysis | oral, 100 mg, extension phase | adverse event incidence | 20% |
| C[C@H]1CNCCCN1S(=O)(=O)c1cccc2cncc(F)c12 | – | healthy adult men | topical ocular, 1 drop per eye twice daily, 8 days | adverse drug reactions | 100% |
| CC(C)C[C@H](NC(=O)CNC(=O)c1cc(Cl)ccc1Cl)B(O)O | – | newly diagnosed multiple myeloma patients | oral, dose not given, Fatigue, maintenance | adverse events all grades | 11% |
| Cc1cc(C)c(CNC(=O)c2cc(Cl)c3c(c2C)O[C@@](C)([C@H]2CC[C@H](N(C)C)CC2)O3)c(=O)[nH]1 | – | relapsed/refractory NHL patients | oral, 200 mg once daily, onset after cycle 1 day 1 | adverse event Headache | 20.8% |
| CC(=O)O[C@H]1C(=O)[C@@]2(C)[C@H]([C@H](OC(=O)c3ccccc3)[C@]3(O)C[C@H](OC(=O)[C@H](O)[C@@H](NC(=O)c4ccccc4)c4ccccc4)C(C)=C1C3(C)C)[C@]1(OC(C)=O)CO[C@@H]1C[C@@H]2O | item: decreased appetite | patients with advanced solid tumours | intravenous, dose not given, phase Ib, related to compound | adverse events, all grades | 31% |
| NCCONC(=O)[C@@H]1CC[C@@H]2CN1C(=O)N2OS(=O)(=O)O | item: infusion-related reaction | healthy Chinese men | intravenous, 2 g, treatment-related | adverse event incidence | 0% |
| CC(=O)N(C)[C@H]1CCN(C(=O)c2cnc3c(c2)C[C@](C)(c2ccc(F)cc2)N3)C1 | item: Lightheadedness | human | oral, 30 mg once daily | adverse event duration | 13 days |

Some of these lines once more:
| Compound | assay | system | conditions | measurement | result |
| --- | --- | --- | --- | --- | --- |
| CCO[C@H]1CCN(Cc2c(OC)cc(C)c3[nH]ccc23)[C@H](c2ccc(C(=O)O)cc2)C1 | item: abdominal pain | PNH patients with active haemolysis | oral, 100 mg, extension phase | adverse event incidence | 20% |
